Assay results gathered from unrelated publications.
Numbered parts are unrelated; each lists some results of a single study. Positions count from the first letter of the parent shown.

Sample 1 — target: CCND1, cyclin fold, Cln2 fusion (human); technique: yeast growth competition, sequencing; medium: yeast; setting: weak parent motif; reference: not given; direction: higher = stronger binding
Starting sequence: BRCA2 docking peptide (human); PSIKRNLLNEFDR
Change	normalised enrichment score
L8M	1.69
L7K	0.041
E10R	0.107
R5A	0.349
L8K	0.164
R13I	1.99
R5T	-0.468
R5L	0.015
I3W	-0.147
R5K	0.132
D12L	-0.0839
L8I	0.576
K4C	2.65
P1T	0.46
L7V	-0.106
L7Y	0.15
E10W	1.13
R13F	0.541
L7M	0.0459
L7D	0.107
S2E	-0.0137
F11E	-0.3
N9K	0.613
E10N	0.0749
S2Q	0.644

Sample 2 — technique: protein-binding microarray; form: double-stranded DNA, one strand shown; medium: in vitro; tested at: 2200 nM top; setting: 60-bp whole probe; with: salmon DNA 0.4 mg/ml; reference: random background probes; direction: higher = stronger binding; shared flanks, not repeated: GCCTAGCAC … GTCTTGATTCGCTTGACGCTGCTG
Target: Interferon regulatory factor 7, full length, phosphomimetic (IRF7, Homo sapiens, UniProt Q92985, residues 1-503, S471D/S472D/S475D/S476D/S477D/S483D/S484D/S487D)
Sequence of UniProt Q92985 (whole entry, unmodified, looked up): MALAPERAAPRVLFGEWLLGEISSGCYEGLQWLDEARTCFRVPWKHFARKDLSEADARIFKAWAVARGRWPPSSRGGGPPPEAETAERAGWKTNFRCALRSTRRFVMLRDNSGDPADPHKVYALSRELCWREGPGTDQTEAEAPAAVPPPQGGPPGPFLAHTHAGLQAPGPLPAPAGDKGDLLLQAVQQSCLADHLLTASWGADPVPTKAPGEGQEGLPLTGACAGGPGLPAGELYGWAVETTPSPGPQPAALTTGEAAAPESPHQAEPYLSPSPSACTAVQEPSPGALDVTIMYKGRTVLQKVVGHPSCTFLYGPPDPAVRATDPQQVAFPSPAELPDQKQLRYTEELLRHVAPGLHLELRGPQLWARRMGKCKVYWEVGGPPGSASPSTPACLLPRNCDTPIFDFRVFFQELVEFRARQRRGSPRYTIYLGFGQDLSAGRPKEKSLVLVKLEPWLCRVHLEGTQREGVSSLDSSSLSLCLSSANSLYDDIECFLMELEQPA
Oligonucleotide	fitted relative affinity
GACGAAATGGGGTTTCGAGACGTGCTA	1.52 z-score
GACGGTTTCGGTTCCGGGGCGTGCTAG	11.4 z-score
GACGGGCTGGACTATCGGGACGTGCTA	-1.25 z-score
GACGGTATCGACACTGGGGATGTGCTA	-0.363 z-score
ATCCATCTCAAGTAGCCTAGCGTGCTA	0.587 z-score
TTAGAACTGGGGTTACGATTAGTGCTA	-0.0506 z-score
GACTGTTTGGTCCTGATCCTGTGCTAG	1.24 z-score
TCATTTTTATTTTCTGAACTGTGCTAG	2.86 z-score
GACGATCTCAGATTGGAGACGTGCTAG	-0.333 z-score
ATCCTTGTCCCTCCGGGAGCGTGCTAG	0.508 z-score
TTAGGTTTCGAGTTTCGGTTAGTGCTA	9.44 z-score
TCACTTTTCACTTTCTTACTGTGCTAG	6.29 z-score
TTAGAACTGGGGTATCGAATAGTGCTA	-0.145 z-score
TTAGGACTGGGACTGGGTGAGTGCTAG	-1.15 z-score
TCATGCTCATTTTTCAGACTGTGCTAG	1.28 z-score
TTAGGTCTCCATATCCTTTAGTGCTAG	0.949 z-score
TCAGTTCTGATCCTTCCCACTGTGCTA	2.1 z-score
TTAGAACTGGGGCATCGATTAGTGCTA	-0.437 z-score
TACTATATGCATGTAAATAAGTGCTAG	0.624 z-score
GACGGTCTCCTACTGTTGACGTGCTAG	0.862 z-score
TTAGGTATCCCACTGCTTTAGTGCTAG	0.829 z-score
GACGATTTCAGTATTGAGACGTGCTAG	0.774 z-score
TTTGATCTCAGTTTCGATTAGTGCTAG	6.08 z-score
TCACTTCTGGATCTCAGACTGTGCTAG	1.56 z-score
GACGGTATCAGACTGGAGACGTGCTAG	-0.0716 z-score

Sample 3 — technique: RNA Bind-n-Seq; form: RNA; medium: in vitro; tested at: 365 nM; reference: no-protein control; direction: higher = stronger binding
Target: RNA binding protein fox-1 homolog 2, RRM domain, GST-SBP tag (RBFOX2, Homo sapiens, UniProt O43251-10, residues 100-194)
Setting: natural RNA segment, single round, ends assumed
Shared flanks, not repeated: GGGAGUUCUACAGUCCGACGAUC … UGGAAUUCUCGGGUGCCAA
Target sequence (chain): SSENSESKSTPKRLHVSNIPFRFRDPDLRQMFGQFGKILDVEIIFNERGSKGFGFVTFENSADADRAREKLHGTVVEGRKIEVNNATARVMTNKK
Oligonucleotide	RBNS enrichment (R)
UAUUACACCUUCAGAACCAUAACAUGCUUAAGAAAACUUUCCCAAAAUGUUGACCUAGUUAAAUGAGGCUAUAUAAAUUUCUAAUAUUUUACUUAUUCUAUUCAAGGCAU	0.519
GUCUGAGAAAUUCCUAAGAUCAAUGAAAGAGUGAUAAACUAUUUGUCUCUGAUACAUAAAAUUAUUUUAAGCAUUUUCUCAAUCAUUAAAUGUUACUGCCAGUCAUAAGU	1.6
AAAGGACAUGGAUGAGAAGAGGAGCCCGCUUCCUGUACAUAUAUUUAAGUGACAAACACGGUCAAAAGCUUAAGGGACAGGUUUUAUGGUUGCUUGUGUAAUAAAGCAUG	8.07
GCCACCAUGCCCGGCCCAUAAGUACCGUUUUUGAGGUUCAGUCUUAAACAUUUGCUUUAAGAAAACAGUCUUGAAUUUCACAUGCUGCUAUUUUUAUAUUUUGCCAUUUU	0.687
UAAUGAAUUUUUUAAAGGGAACUUUCUAUGCAAUGUUCAGGAUAAAUGCAUACUGCUGGCCAAUCAGUGUCAUCUCCUGGGUAAAUUUUGAUGUCGCAUUAUAAAGACAU	0.772
CCUUCUUCAUUGUUGUUUGUAUUUAUGAAAUUCUGAAAUUAUGGGGAAUCAGUGUACUGAUUAUGUUUUCAUCACCAGGCUGUGAGCAAUAUCUUGAGUUUGUAGCUUAG	1.02
UUGCUUUUGACUCUAAGCAUAACAUGACAAACCUCUAAGGAUGUAAUUAAAUUUAUUUUAAAACUUUUAAACUUGUACAUUCCUUUUAAUUAUUUUCUUAUUUCUGCUUC	1
UUGAGAGAGCAGGGUAAGGAAGGAAUGUGCUAGAAGUGCUCCUAGUUUCUUGUAAAGGAAGCCAGAGUUGACAGUACAAAGGGUCGUGGCCAGCCCUGCAGCUUCAGCAC	1.77
UAACCAGUUUUUAUAUUGACCUGCAGUGUAAAAAGCACAUUUAAUUAUAAACAAUAUAUUCAAAAUGGGCAAAUUUUAUUUUCAAAUGCAGUGUAGAGCUAGAUUAAAAG	0.416
CUGAUGUCAGUGAACGGAACUGAAGAGCAAGACAUGGAGCCUGGCUGGGGCUAAGCAGCCCCCUCCUCCGGAUGGCACAGGCUCUGCUAGGUUCCGGACACAGGCUUCUG	0.414
GAGUAUUUUGUAAUUUUUUUGAAAUAUUUGUGGACAUAAAUAAAACCAAGCUACACUACAACCCUUGGUGUCUCCCGUGCACUGUCUCAUUCCUGGAGAGUGGGCGGGGA	0.302
AGAGUACACCGUUCACUAUUGUAGAGUAACCCCUGUGACUCAAUAUUACCAUAGUGCGAUGUCGUUUUGUGCUAUUUUGAACAAUUAAAAGACUUUUUUUGAAAUAACCA	0.376

Sample 4 — technique: DHFR PCA, deep sequencing; medium: yeast; with: (+)-ABA 0 µM; reference: wild-type fitted maximum; direction: higher = stronger binding
Target: ABI1, truncated, D143A, DHFR fusion (Arabidopsis thaliana)
Setting: methotrexate growth selection, single substitutions
Starting sequence: PYL1, truncated, DHFR fusion (Arabidopsis thaliana); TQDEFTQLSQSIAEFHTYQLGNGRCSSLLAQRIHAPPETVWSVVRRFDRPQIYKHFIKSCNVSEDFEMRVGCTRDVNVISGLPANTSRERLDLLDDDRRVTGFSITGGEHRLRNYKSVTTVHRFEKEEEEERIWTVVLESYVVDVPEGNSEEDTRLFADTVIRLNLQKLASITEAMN
Change	relative binding score
R46M	2.17%
V143P	10%
S27C	2.06%
R24Y	1.54%
T73F	43.8%
T17P	0.519%
R155Q	13.9%
R32C	15.3%
S140D	6.73%
V40P	-0.553%
V161Y	14.1%
K116I	-0.0658%
E174L	-0.147%
E14D	10.6%
V40I	5%
L28Q	-3.34%
K168I	-0.167%
L166F	-5.08%
Q2Y	68.7%
V43W	-2.16%
G148F	-17.7%
E127N	27.7%
V44N	-2.01%
A170K	50.3%
D159F	-16.6%
